Experimental data collected from several papers.
Protocols differ between the studies behind these lines.

SMILES | organism | assay | test system | setting | MIC
CC(C)C[C@@H]1NC(=O)[C@H](C)NC(=O)[C@@H]2NC(=O)[C@H](CO)NC(=O)[C@@H](CCCCN)NC(=O)[C@H](NC(=O)[C@@H](N)Cc3ccccc3)CCCCCCCC[C@H](NC1=O)C(=O)O[C@H]2C | Bacillus subtilis Bacillus subtilis | – | ATCC 6051 | tested as TFA salt | 4 µg/mL
C/C=C1\NC(=O)[C@H](Cc2ccccc2)NC(=O)[C@H](C(C)C)NC(=O)[C@H](Cc2ccccc2)NC(=O)[C@H](CCC(N)=O)NC(=O)[C@H](Cc2c[nH]c3ccccc23)NC(=O)[C@H]2CSC[C@@H](C(=O)N[C@@H](CO)C(=O)O)NC(=O)[C@H](CSC[C@H]3NC(=O)[C@H]([C@@H](C)CC)NC(=O)[C@H](NC(=O)[C@H](Cc4c[nH]cn4)NC(=O)[C@@H](NC(=O)[C@@H](NC(=O)CNC(=O)[C@H](CO)NC(=O)CNC(=O)CNC(=O)[C@@H](N)CCCCN)C(C)C)[C@@H](C)CC)[C@H](C)SC[C@H](NC(=O)[C@H](CCC(=O)O)NC(=O)[C@H](Cc4c[nH]cn4)NC3=O)C(=O)N[C@@H](CC(N)=O)C(=O)N[C@@H](CCSC)C(=O)N[C@@H](CC(N)=O)C(=O)N2)NC1=O | Lactococcus lactis subsp. cremoris | – | HP ATCC 11602 | 6 h, 30 °C | 0.625 µM
[O-][N+]1=C(c2ccsc2)C2=NCCCN2c2ccccc21 | Peptostreptococcus anaerobius | – | – | – | 1 µg/mL
CC[C@H](C)[C@@H]1NC(=O)CNC(=O)[C@H](CCCCN)NC(=O)[C@H](C)NC(=O)[C@H](CCC(=O)O)NC(=O)[C@H](Cc2ccccc2)NC(=O)[C@H](CO)NC(=O)[C@H](CC(C)C)NC(=O)[C@H](C(C)C)NC(=O)[C@H](CC(=O)O)NC(=O)[C@@H](NC(=O)[C@@H](NC(=O)[C@@H](N)C(C)C)[C@@H](C)O)CSSC[C@@H]2NC(=O)[C@H](CO)NC(=O)CNC(=O)CNC(=O)[C@H](CCCCN)NC(=O)[C@H](CCCCN)NC(=O)[C@H](CCCNC(=N)N)NC(=O)[C@H](CC(C)C)NC(=O)[C@H](C)NC(=O)[C@H]([C@@H](C)CC)NC(=O)[C@H](CSSC[C@@H](C(=O)N[C@@H](CCCNC(=N)N)C(=O)N[C@@H](CC(N)=O)C(=O)O)NC(=O)[C@H](C(C)C)NC(=O)[C@H](C)NC(=O)[C@H](C(C)C)NC(=O)CNC(=O)[C@H](CC(N)=O)NC(=O)[C@H](CCC(N)=O)NC2=O)NC(=O)[C@H](Cc2c[nH]cn2)NC(=O)[C@H](CC(C)C)NC(=O)[C@H](C)NC(=O)[C@H](C)NC(=O)[C@H](C)NC(=O)[C@H](CO)NC(=O)[C@H](Cc2c[nH]cn2)NC(=O)[C@H](CC(N)=O)NC(=O)[C@H](C(C)C)NC(=O)[C@H](C)NC1=O | Malassezia furfur | broth microdilution | KCTC 7744 | 32 °C, YM broth with 1% olive oil | 25 µM
CCCCc1ccc(-c2nc(C)c(C(C)=NNC(=N)N)s2)cc1 | Staphylococcus aureus | – | NRS194 MRSA | – | 1.3 µg/mL
Cc1cc(C)c(SCC2OC(OC3C(N)CC(N)C(OC4OC(CN)C(O)CC4N)C3O)C(O)C(N)C2O)c(C)c1 (stereo not shown) | Listeria monocytogenes | – | ATCC 19115 | – | 37.5 µg/mL
[O-][N+]1=C(c2ccccc2)C2=NCCCN2c2ncccc21 | Fusobacterium nucleatum | microbial growth | ATCC25586 | – | 0.125 µg/mL
CN[C@@H]1[C@H](O)[C@H](NC)[C@H]2O[C@]3(O)[C@H](O[C@@H]2[C@H]1O)O[C@H](C)C[C@@]3(O)CNCc1ccc(F)cc1 | Listeria monocytogenes | – | – | – | 6.3 µg/mL
CC[C@H](C)[C@H](NC(=O)[C@@H](NC(=O)CN)C(C)C)C(=O)N[C@@H](Cc1ccccc1)C(=O)N[C@@H](CC(N)=O)C(=O)N[C@@H](C)C(=O)N[C@@H](CC(C)C)C(=O)N[C@@H](CCCCN)C(=O)NCC(=O)N[C@H](C(=O)N[C@@H](C)C(=O)N[C@@H](CCCCN)C(=O)N[C@H](C(=O)N[C@H](C(=O)N[C@@H](C)C(=O)N[C@@H](C)C(=O)N[C@@H](CCC(N)=O)C(=O)N[C@@H](CC(C)C)C(=O)N[C@@H](CC(C)C)C(=O)N[C@@H](CCCCN)C(=O)N[C@@H](CCCCN)C(=O)N[C@@H](C)C(=O)N[C@@H](CCCNC(=N)N)C(=O)N[C@H]1CSSC[C@@H](C(=O)O)NC(=O)[C@H](CO)NC(=O)[C@H](CCCCN)NC(=O)[C@H](CC(=O)O)NC(=O)[C@H](CC(C)C)NC(=O)[C@H](CCCCN)NC1=O)C(C)C)[C@@H](C)O)C(C)C | Staphylococcus aureus | – | NCTC 10788, Mueller-Hinton broth | added: KCl 4.5 mM | 2 µM
[O-][N+]1=C(c2ccc(Cl)cc2)C2=NCCCCN2c2ccccc21 | Eggerthella lenta | microbial growth | ATCC43055 | – | 1 µg/mL
